Measured values from different studies.
Numbered parts are unrelated; each lists some results of a single study. “And” joins repeats or separate records; there may be more than shown.

Set 1
Structure (SMILES): Cc1ncsc1-c1ccc(C(CO)NC(=O)C2CC(O)CN2C(=O)C(C(C)C)n2cc(-c3ccc(COc4c(-c5c(C)c(F)cc6[nH]ncc56)c(C5CC5)cc5c(N6CC7CC6CN7)nc(OC6CCOCC6)nc45)cc3)nn2)cc1 (stereo not drawn)
| test system | setting | tumour volume |
| --- | --- | --- |
| mouse, lung LXFA sample B PDX | 10 mg/kg twice weekly, day 14 | 217 mm3 and 296 mm3 and 323 mm3 and 82.9 mm3 and 112 mm3 and 120 mm3 and 41.7 mm3 and 155 mm3 |
| mouse, lung LXFA sample A PDX | 10 mg/kg twice weekly, day 15 | 84.2 mm3 and 146 mm3 and 182 mm3 and 231 mm3 and 79.5 mm3 and 250 mm3 and 83.3 mm3 and 436 mm3 |
| GP5d xenograft, mouse | 30 mg/kg once weekly, day 14 | 188 mm3 and 212 mm3 and 167 mm3 and 222 mm3 and 252 mm3 |
| mouse, PK-59 xenograft | 30 mg/kg, day 7 | 237 mm3 and 281 mm3 and 184 mm3 and 290 mm3 and 198 mm3 |
| mouse, PK-59 xenograft | 3 mg/kg, day 7 | 567 mm3 and 418 mm3 and 573 mm3 and 441 mm3 and 432 mm3 |
| mouse, lung LXFA sample B PDX | 10 mg/kg twice weekly, day 22 | 343 mm3 and 289 mm3 and 482 mm3 and 65.8 mm3 and 198 mm3 and 194 mm3 and 444 mm3 and 133 mm3 |
| ASPC1 xenograft, mouse | 30 mg/kg once weekly, day 14 | 211 mm3 and 218 mm3 and 278 mm3 and 205 mm3 and 229 mm3 |
| mouse, PK-59 xenograft | 30 mg/kg, day 21 | 92.3 mm3 and 80.1 mm3 and 123 mm3 and 148 mm3 and 96.7 mm3 |
| mouse, PK-59 xenograft | 10 mg/kg, day 0 | 229 mm3 and 309 mm3 and 279 mm3 and 336 mm3 and 321 mm3 |
| KP-4 xenograft, mouse | 30 mg/kg once weekly, day 4 | 186 mm3 and 148 mm3 and 151 mm3 and 185 mm3 and 175 mm3 |

Set 2
SMILES: O=C(Nc1ccccc1)Nc1cccc(Oc2ccc3nccn3n2)c1
Effect on: binding
Concentration: 1 µM
| target | assay | remaining binding [%] |
| --- | --- | --- |
| MAPK1 (Homo sapiens, UniProt P28482) | – | 100 |
| Mast/stem cell growth factor receptor Kit, autoinhibited (KIT, Homo sapiens, UniProt P10721) | competition with immobilised ligand | 61 |
| KIT (Homo sapiens, UniProt P10721, V559D) | – | 0 |
| SRPK3 (Homo sapiens, UniProt Q9UPE1) | – | 71 |
| ABL1 (Homo sapiens, UniProt P00519, T315I) | – | 93 |
| CDK13 (Homo sapiens, UniProt Q14004) | – | 100 |
| CLK1 (Homo sapiens, UniProt P49759) | competition with immobilised ligand | 94 |
| MAP3K2 (Homo sapiens, UniProt Q9Y2U5) | competition with immobilised ligand | 100 |
| MAP3K19 (Homo sapiens, UniProt Q56UN5) | competition with immobilised ligand | 13 |
| RET (Homo sapiens, UniProt P07949, M918T) | – | 73 |
| FER (Homo sapiens, UniProt P16591) | – | 100 |
| Ribosomal protein S6 kinase alpha-4, C-terminal kinase domain (RPS6KA4, Homo sapiens, UniProt O75676) | competition with immobilised ligand | 100 |
| MAPK11 (Homo sapiens, UniProt Q15759) | competition with immobilised ligand | 100 |
| ERN1 (Homo sapiens, UniProt O75460) | – | 100 |
| MKNK1 (Homo sapiens, UniProt Q9BUB5) | competition with immobilised ligand | 90 |
| PKN1 (Homo sapiens, UniProt Q16512) | – | 100 |
| NEK3 (Homo sapiens, UniProt P51956) | – | 92 |

Set 3
Compound: CCN1/C(=C/C=C2\CCCC(/C=C/C3=[N+](CC)c4ccccc4C3(C)C)=C2NCCCCCCCCN2CCC(Nc3nc4ccccc4n3Cc3ccc(F)cc3)CC2)C(C)(C)c2ccccc21
Cell line: U-87 MG
Concentration: concentration not given
Reference: DMSO
| assay | log2 fold change |
| --- | --- |
| measured: ETS2 mRNA | 1.33 |
| measured: PADI3 mRNA | -4.25 |
| measured: DBP mRNA | -1.6 |
| measured: UFM1 mRNA | 1.15 |
| measured: TMOD1 mRNA | 1.79 |
| measured: CFAP45 mRNA | -1.43 |
| measured: SEMA7A mRNA | -1.3 |
| measured: UAP1 mRNA | 0.99 |
| measured: RNF11 mRNA | 0.977 |
| measured: CNIH2 mRNA | -2.02 |
| measured: RFFL mRNA | 1.01 |
| measured: OSGEPL1 mRNA | -1.22 |
| measured: PLEC mRNA | -1.35 |
| measured: HFE | -1.46 |
| measured: GARS1 mRNA | 1.34 |
| measured: CLEC20A mRNA | -2.27 |

Set 4
Cell line: Gaucher fibroblasts L444P/L444P
Technique: 4-MUG hydrolysis, cell lysate
Concentration: 10 µM
Reference: DMSO
| SMILES | GCase activity |
| --- | --- |
| Ic1ccc(Nc2nc(NCCN3CCOCC3)nc(N3CCCC3)n2)cc1 | 105% and 93.3% and 83.4% |
| Ic1ccc(Nc2nc(NCCc3c[nH]c4ccccc34)nc(NCCN3CCOCC3)n2)cc1 | 105% and 96.7% and 88.8% and 101% |
| c1ccc(Nc2nc(NCCN3CCOCC3)nc(N3CCOCC3)n2)cc1 | 119% and 125% and 112% and 107% and 105% |
| Ic1ccc(Nc2nc(NCCN3CCOCC3)nc(N3CCSCC3)n2)cc1 | 90.9% and 96.6% and 93.5% and 89% and 87.5% |
| COc1ccc(Nc2nc(NCCN3CCOCC3)nc(N3CCOCC3)n2)cc1 | 111% and 102% and 104% and 108% and 106% and 107% |
| Ic1ccc(Nc2nc(NCCN3CCOCC3)nc(NC3CCCCC3)n2)cc1 | 101% and 91% and 89.3% and 91.4% and 87.8% |
| Cc1ccc(Nc2nc(NCCN3CCOCC3)nc(N3CCOCC3)n2)cc1 | 167% and 150% and 141% and 170% and 165% |
| CCN(CC)c1nc(NCCN2CCOCC2)nc(Nc2ccc(I)cc2)n1 | 72.8% and 69.3% and 81.8% and 65.2% and 73.3% |

A few entries again (set 3):
| assay | log2 fold change |
| --- | --- |
| measured: SEMA7A mRNA | -1.3 |
| measured: TMOD1 mRNA | 1.79 |
| measured: PADI3 mRNA | -4.25 |
| measured: OSGEPL1 mRNA | -1.22 |
| measured: GARS1 mRNA | 1.34 |
| measured: RNF11 mRNA | 0.977 |
